# Earlier results that unrelated publications cite.
# Lines come from different studies, so protocols differ. ± gives the spread as reported.
# Chain of UniProt Q9UM73 (whole entry, unmodified, looked up): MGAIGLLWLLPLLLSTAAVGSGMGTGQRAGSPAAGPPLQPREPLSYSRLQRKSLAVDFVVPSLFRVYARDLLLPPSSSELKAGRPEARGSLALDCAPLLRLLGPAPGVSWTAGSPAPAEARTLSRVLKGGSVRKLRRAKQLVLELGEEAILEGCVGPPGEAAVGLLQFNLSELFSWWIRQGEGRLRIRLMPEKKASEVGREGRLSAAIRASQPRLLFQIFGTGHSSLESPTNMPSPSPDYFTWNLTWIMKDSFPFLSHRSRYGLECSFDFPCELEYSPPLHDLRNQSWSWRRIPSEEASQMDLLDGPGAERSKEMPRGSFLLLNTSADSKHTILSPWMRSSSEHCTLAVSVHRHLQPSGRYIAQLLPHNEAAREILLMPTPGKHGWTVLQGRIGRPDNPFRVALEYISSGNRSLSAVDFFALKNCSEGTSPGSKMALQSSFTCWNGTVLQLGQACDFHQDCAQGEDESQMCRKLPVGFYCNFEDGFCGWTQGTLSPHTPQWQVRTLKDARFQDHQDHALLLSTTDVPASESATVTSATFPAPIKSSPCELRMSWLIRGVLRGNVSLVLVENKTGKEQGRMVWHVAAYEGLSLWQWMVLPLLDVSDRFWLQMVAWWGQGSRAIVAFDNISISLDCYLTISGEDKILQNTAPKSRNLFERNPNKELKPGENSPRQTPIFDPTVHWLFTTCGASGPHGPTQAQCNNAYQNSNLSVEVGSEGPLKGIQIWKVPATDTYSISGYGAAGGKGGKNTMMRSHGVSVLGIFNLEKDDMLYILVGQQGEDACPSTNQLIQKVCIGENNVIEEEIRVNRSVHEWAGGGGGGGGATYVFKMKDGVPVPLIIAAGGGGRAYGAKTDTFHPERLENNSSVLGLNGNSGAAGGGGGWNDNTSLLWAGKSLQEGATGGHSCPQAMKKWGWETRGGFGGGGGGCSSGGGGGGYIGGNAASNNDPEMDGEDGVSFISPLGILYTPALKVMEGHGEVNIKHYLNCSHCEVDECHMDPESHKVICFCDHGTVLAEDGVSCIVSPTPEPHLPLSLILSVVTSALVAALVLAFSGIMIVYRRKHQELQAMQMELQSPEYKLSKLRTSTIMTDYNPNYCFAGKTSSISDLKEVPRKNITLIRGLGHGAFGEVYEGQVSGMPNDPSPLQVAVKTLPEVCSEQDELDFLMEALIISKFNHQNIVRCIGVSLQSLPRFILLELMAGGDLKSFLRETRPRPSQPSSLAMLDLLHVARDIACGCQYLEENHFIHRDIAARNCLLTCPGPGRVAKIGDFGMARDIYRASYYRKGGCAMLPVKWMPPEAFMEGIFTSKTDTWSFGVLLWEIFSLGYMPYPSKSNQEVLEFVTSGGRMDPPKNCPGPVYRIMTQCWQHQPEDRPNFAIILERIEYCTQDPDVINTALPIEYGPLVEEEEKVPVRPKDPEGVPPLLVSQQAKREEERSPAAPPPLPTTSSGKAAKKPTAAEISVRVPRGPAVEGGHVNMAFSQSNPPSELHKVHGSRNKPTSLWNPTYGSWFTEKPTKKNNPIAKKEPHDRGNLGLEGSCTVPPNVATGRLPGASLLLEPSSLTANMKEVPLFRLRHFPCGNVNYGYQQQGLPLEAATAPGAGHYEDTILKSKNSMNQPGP
SMILES,target or system,assay,system,conditions,scale,measurement,value
C[C@H]1COCCN1c1nc(-c2cnc(N)cc2C(F)F)nc(N2CCOCC2)n1,PA-1,,,,,GI50,694 nM
Cn1c(Cn2ccc(C(F)(F)F)c(Oc3cc(Cl)cc(C#N)c3)c2=O)n[nH]c1=O,,,human,"100 mg, anticipated",,unbound Cmax,0.7 µM
O=C(c1cc(Cc2n[nH]c(=O)c3ccccc23)ccc1F)N1CCN(C(=O)C2CC2)CC1,,,human,300 mg tablet,baseline: 400 mg capsule,AUC(0-12h),increased
CC(C)[C@H](N)C(=O)OCC(CO)OCn1cnc2c(=O)[nH]c(N)nc21 (some centres unmarked),,,monkey,30 mg/kg,,oral bioavailability,42%
COc1cc2nccc(Oc3ccc(NC(=O)C4(C(=O)Nc5ccc(F)cc5)CC4)cc3)c2cc1OC,,,"cancer patients, real-world",dose not given,,median time to dose reduction,1.8 months
COC(=O)[C@H](c1ccccc1Cl)N1CCc2sccc2C1,,,,,,logP,3.23
O=C(c1cc(Cc2n[nH]c(=O)c3ccccc23)ccc1F)N1CCN(C(=O)C2CC2)CC1,,,female rat,"dose not given, after 4 weeks daily dosing, at NOAEL",,AUC(0-24 h),6270 ng·h/mL
C=CC(=O)N1CCC(CNc2ncnc(N)c2-c2ccc(Oc3ccccc3)cc2)CC1,,,human,75 mg once daily,,volume of distribution,620 L
CCc1nc(N)nc(N)c1-c1ccc(Cl)cc1,,,water,,,solubility,< 1 mg/mL
CCCCC[C@H](O)CC[C@@H]1[C@H]2Cc3cccc(OCC(=O)O)c3C[C@H]2C[C@H]1O,,,non-Japanese healthy adults,36 µg,,AUC(0-inf),0.61 ± 0.18 ng·h/mL
CN(C)CCC[C@@]1(c2ccc(F)cc2)OCc2cc(C#N)ccc21,,"population PK, sparse sampling",human patients up to sample A years,,,CL/F,16.3 L/h
CNCc1cc(-c2ccccc2F)n(S(=O)(=O)c2cccnc2)c1,,,"human, plasma","10 mg single dose, observed clinical data",,Tmax,1.5 h
CN[C@H]1CC[C@@H](c2ccc(Cl)c(Cl)c2)c2ccccc21,,,plasma,,,free Cmax,1.25 nM
Cc1cc2nc3c(=O)[nH]c(=O)nc-3n(C[C@H](O)[C@H](O)[C@H](O)COP(=O)(O)O)c2cc1C,,,aqueous solution,"unbound, ox/hq couple",,two-electron potential,-205 mV
COc1cc2ncnc(Nc3ccc(F)c(Cl)c3)c2cc1OCCCN1CCOCC1,,,FaSSIF,literature value,,solubility,0.0887 mg/mL
NC(=O)c1ncn([C@@H]2O[C@H](CO)[C@@H](O)[C@H]2O)n1,,,human,,,free Cmax,27900 nM
Nc1ccn([C@H]2CO[C@@H](CO)S2)c(=O)n1,,,human,800 mg,,oral bioavailability,65 to 80%
COc1cc(NC(=O)CCN2CCC(OC(=O)Nc3ccccc3-c3ccccc3)CC2)c(Cl)cc1CNC[C@H](O)c1ccc(O)c2[nH]c(=O)ccc12,,,"human, plasma","inhaled, dose not given",,Clast,4.1 pM
CC(C)Nc1nc2cc(Cl)c(Cl)cc2n1[C@H]1O[C@@H](CO)[C@H](O)[C@@H]1O,,,healthy volunteers,dose not given,,terminal elimination half-life,3 to 4.8 h
CNC(C)C1CCC(N)C(OC2C(N)CC(N)C(OC3OCC(C)(O)C(NC)C3O)C2O)O1 (centres unmarked),Pseudomonas aeruginosa,,clinical isolate RKI-No_589/12,,,MIC,8 mg/L
CC(C)(C)c1cc(C(C)(C)C)c(NC(=O)c2c[nH]c3ccccc3c2=O)cc1O,,,human,,,blood-to-plasma ratio,0.55
Cc1ccc([C@@H]2O[C@H](CO)[C@@H](O)[C@H](O)[C@H]2O)cc1Cc1ccc(-c2ccc(F)cc2)s1,,,"human, preserved kidney function","100 mg, steady state, mean",,clearance,16.4 L/h
CS(=O)(=O)OCCCCOS(C)(=O)=O,,,water,,,solubility,< 1 mg/mL
CC1(C)S[C@@H]2[C@H](NC(=O)[C@H](N)c3ccccc3)C(=O)N2[C@H]1C(=O)O,Pseudomonas aeruginosa,,clinical isolate RKI-No_347/12,,,MIC,> 16 mg/L
Cc1nc(NC(=O)N2CCC[C@H]2C(N)=O)sc1-c1ccnc(C(C)(C)C(F)(F)F)c1,,,human,"oral, 300 mg single dose, together with: high-fat high-calorie meal",baseline: fasted,increase in Cmax,84%
CNC(=O)c1cc(Oc2ccc(NC(=O)Nc3ccc(Cl)c(C(F)(F)F)c3)cc2)ccn1,,,supercritical CO2,,,crossover pressure,140 to 160 bar
C=CC(=O)NC1CCN(c2ncc3ncnc(Nc4ccc(Oc5ccc6c(c5)ncn6C)c(C)c4)c3n2)CC1,,,human,"oral microdose tablet, dose-normalised geometric mean",baseline: intravenous,absolute bioavailability,76.2%
CC1(C)C[C@@H]1C(=O)N/C(=C\CCCCSC[C@H](N)C(=O)O)C(=O)O,,,human,,,t_half,0.8 h
CNC(=O)c1ccc(N2C(=S)N(c3ccc(C#N)c(C(F)(F)F)c3)C(=O)C2(C)C)cc1F,,item: fatigue,post-docetaxel patients,"dose not given, AFFIRM trial",,adverse event incidence,34%
CCCN(CCc1cccs1)[C@H]1CCc2c(O)cccc2C1,,,water,,,solubility,< 1 mg/mL
Nc1ccn([C@@H]2O[C@H](CO)[C@@H](O)C2(F)F)c(=O)n1,,,human,"intravenous infusion, 1000 mg/m2, 30 min",baseline: dose,total urinary excretion,92 to 98%
Cc1cn([C@H]2C=C[C@@H](CO)O2)c(=O)[nH]c1=O,,,human,1.33 mg/kg,,oral bioavailability,> 80%
Cc1cc(C)c(CNC(=O)c2cc(Cl)c3c(c2C)O[C@@](C)([C@H]2CC[C@H](N(C)C)CC2)O3)c(=O)[nH]1,,,human,"dose not given, together with: fluconazole, moderate CYP3A inhibitor",baseline: without fluconazole,total AUCinf increase,~1.6 fold
FC(F)(F)c1ccc(CNc2ccc(Cc3c[nH]c4ncc(Cl)cc34)cn2)cn1,,,"patients, plasma","oral, 400 mg once daily, day 1, mean",,AUC(0-24 h),38100 ng·h/mL
Cc1nc(Nc2ncc(C(=O)Nc3c(C)cccc3Cl)s2)cc(N2CCN(CCO)CC2)n1,,,human,,,free Cmax,7.05 nM
C=CC[C@@H]1/C=C(\C)C[C@H](C)C[C@H](OC)[C@H]2O[C@@](O)(C(=O)C(=O)N3CCCC[C@H]3C(=O)O[C@H](/C(C)=C/[C@@H]3CC[C@@H](O)[C@H](OC)C3)[C@H](C)[C@@H](O)CC1=O)[C@H](C)C[C@@H]2OC,,,human,"concentration not given, clinical",,diarrhoea incidence,72%
C[Si](C)(C)O[Si](C)(C)O[Si](C)(C)C,,vapour pressure over solubility,,25 °C,,log KAW,3.16
CN(C)C(=O)c1cc2cnc(Nc3ccc(N4CCNCC4)cn3)nc2n1C1CCCC1,,,"human, urine","oral, 600 mg, radiolabelled",baseline: dose,dose excreted,22.6%
COc1cc(C(C)=O)ccc1OCCCN1CCC(c2noc3cc(F)ccc23)CC1,,,water,,,solubility,< 1 mg/mL
c1cc2nc(c1)CNCCNCCNC2,,,aqueous solution,"Cu(II) 1 µM, ligand 10 µM",,pCu,16.7
Nc1nc(Cl)nc2c1ncn2[C@H]1C[C@H](O)[C@@H](CO)O1,,,water,,,solubility,< 1 mg/mL
O=C(Nc1ccc(-c2nc(-c3ccc(Cl)cc3)no2)cc1)C1CC(=O)N(Cc2ccco2)C1 (centres unmarked),,metabolic stability,rat liver microsomes,,,half-life,11 min
CC[C@H](C)[C@H](NC(=O)[C@H](Cc1ccccc1)NC(=O)[C@H](CCC(=O)O)NC(=O)[C@H](CCCCNC(=O)COCCOCCNC(=O)COCCOCCNC(=O)CC[C@H](NC(=O)CCCCCCCCCCCCCCCCC(=O)O)C(=O)O)NC(=O)[C@H](C)NC(=O)[C@H](C)NC(=O)[C@H](CCC(N)=O)NC(=O)CNC(=O)[C@H](CCC(=O)O)NC(=O)[C@H](CC(C)C)NC(=O)[C@H](Cc1ccc(O)cc1)NC(=O)[C@H](CO)NC(=O)[C@H](CO)NC(=O)[C@@H](NC(=O)[C@H](CC(=O)O)NC(=O)[C@H](CO)NC(=O)[C@@H](NC(=O)[C@H](Cc1ccccc1)NC(=O)[C@@H](NC(=O)CNC(=O)[C@H](CCC(=O)O)NC(=O)C(C)(C)NC(=O)[C@@H](N)Cc1cnc[nH]1)[C@@H](C)O)[C@@H](C)O)C(C)C)C(=O)N[C@@H](C)C(=O)N[C@@H](Cc1c[nH]c2ccccc12)C(=O)N[C@@H](CC(C)C)C(=O)N[C@H](C(=O)N[C@@H](CCCNC(=N)N)C(=O)NCC(=O)N[C@@H](CCCNC(=N)N)C(=O)NCC(=O)O)C(C)C,,,human reference subject,"body weight 85 kg, population PK model",,inter-compartmental clearance,0.304 L/h
Oc1ccc(/C=C/c2cc(O)cc(O)c2)cc1,,,water,,,solubility,< 1 mg/mL
N[C@@H](CC(=O)N1CCn2c(nnc2C(F)(F)F)C1)Cc1cc(F)c(F)cc1F,,,supercritical CO2,,,crossover pressure,160 to 180 bar
CC(C)(CO)c1cc2cc(NC(=O)C3(c4ccc5c(c4)OC(F)(F)O5)CC3)c(F)cc2n1C[C@@H](O)CO,,,human liver microsomes,,,CLint,7.36 µL/min/mg protein
Nc1cc(C(F)(F)F)c(-c2nc(N3CCOCC3)nc(N3CCOCC3)n2)cn1,"ALK tyrosine kinase receptor (ALK, Homo sapiens, UniProt Q9UM73, L1196M)",enzyme activity,,10 µM,baseline: untreated,remaining activity,95%
CCCCCOC(=O)Nc1nc(=O)n([C@@H]2O[C@H](C)[C@@H](O)[C@H]2O)cc1F,,,human,"concentration not given, clinical",,diarrhoea incidence,55%
O=c1c(-c2ccc(O)cc2)coc2cc(O)cc(O)c12,,,plasma,"concentration not given, total, steady state",,Cmax,0.81 µM
Cc1cc2c(s1)Nc1ccccc1N=C2N1CCN(C)CC1,,,human,,,free Cmax,2.89 nM
CNC(=O)c1c(C)oc2cc(Oc3ncnc4cc(OC)c(OC)cc34)ccc12,,,urine,"5 mg radiolabelled, time not given",,unchanged dose recovered,0.5%
CCN1CCN(Cc2ccc(Nc3ncc(F)c(-c4cc(F)c5nc(C)n(C(C)C)c5c4)n3)nc2)CC1,,,healthy human subjects,"dose not given, 24 h post-dose","baseline: baseline, maximum mean",serum creatinine increase,20 to 35%
Cc1cc(-c2nccc3c2ccn3CC(=O)Nc2ccc(-c3cnccn3)cn2)ccn1,,,dog,"30 mg/kg/day, 1 month, repeat dosing",,"Cmax, total",6.4 µM
C#Cc1cccc(Nc2ncnc3cc4c(cc23)OCCOCCOCCO4)c1,,,water,,,solubility,< 1 mg/mL
Cc1ccc(NC(=O)c2ccc(CN3CCN(C)CC3)cc2)cc1Nc1nccc(-c2cncc(-c3oncc3C)c2)n1,,,mouse,"100 mg/kg/day, steady state",,AUC(0-inf),37800 ng·h/mL
COCCc1ccc(OCC(O)CNC(C)C)cc1 (centres unmarked),,,human fasted,"50 mg multiple doses, day 5, mean",,AUC(0-24 h),351 ng·h/mL
CC(C)COc1ccc(CNC(=O)N(Cc2ccc(F)cc2)C2CCN(C)CC2)cc1,,,plasma,"concentration not given, total concentration",,Cmax,0.025 µM
C#C[C@]1(O)CC[C@H]2[C@@H]3CCC4=CC(=NO)CC[C@@H]4[C@H]3CC[C@@]21CC (mixture of isomers),,,"human, fasted","0.18 mg norgestimate, single dose",,"Cmax, mean",779 pg/mL
C#C[C@]1(O)CC[C@H]2[C@@H]3CCc4cc(O)ccc4[C@H]3CC[C@@]21C,,,plasma,"concentration not given, total, steady state",,Cmax,0.0004 µM
C=C1[C@H](CO)[C@@H](O)C[C@@H]1n1cnc2c(=O)[nH]c(N)nc21,,,human,,,oral bioavailability,70%
CC(=O)O[C@H]1C(=O)[C@@]2(C)[C@H]([C@H](OC(=O)c3ccccc3)[C@]3(O)C[C@H](OC(=O)[C@H](O)[C@@H](NC(=O)c4ccccc4)c4ccccc4)C(C)=C1C3(C)C)[C@]1(OC(C)=O)CO[C@@H]1C[C@@H]2O,,,pretreated metastatic breast cancer patients,"80 mg/m2 weekly, monotherapy",,grade 3 peripheral neuropathy incidence,8%
CN(C)CCCN1c2ccccc2Sc2ccc(Cl)cc21,,,liver microsomes 0.5 mg/mL,1 µM,,"CLint, scaled",55.9 mL/min/kg
